Measurements collected from several papers.
Every numbered part comes from another study and shows a few of its results, in no order.

Set 1
Target: Histone acetyltransferase KAT6A, winged helix 2, GST fusion (KAT6A, Homo sapiens, UniProt Q92794, residues 85-181)
Technique: protein binding microarray
Molecule type: double-stranded DNA, one strand shown
Sample: in vitro
Tested at: not given
Notes: 8-mer, flanks averaged, mean of 2 arrays, mostly near background
Baseline: not given
Direction: higher = stronger binding
Endpoint: E-score
Construct (chain): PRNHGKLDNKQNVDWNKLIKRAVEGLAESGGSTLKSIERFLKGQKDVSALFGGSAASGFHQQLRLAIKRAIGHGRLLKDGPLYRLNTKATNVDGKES
CCTATATA: -0.181
ACTCATAC: -0.0907
CATACGAA: 0.0671
ACCGTGCC: -0.13
CTGACACA: 0.0907
TCACTAAA: 0.00754
CGGTTTAG: 0.146
CCCCTGCG: 0.22
AGTATTTA: -0.102
GAGTTTAA: 0.114
ACCCTGCA: 0.172
ACTATGAA: -0.042
CTAAAGTC: -0.124
AGAGGGGG: 0.101
CTGTCCTC: -0.0149
AGAATTCC: -0.0638

Set 2
Target: RNA binding protein fox-1 homolog 2, RRM domain, GST-SBP tag (RBFOX2, Homo sapiens, UniProt O43251-10, residues 100-194)
Technique: RNA Bind-n-Seq
Molecule type: RNA
Sample: in vitro
Tested at: 365 nM
Notes: natural RNA segment, single round, ends assumed
Baseline: no-protein control
Direction: higher = stronger binding
Endpoint: RBNS enrichment (R)
All sequences stand within: GGGAGUUCUACAGUCCGACGAUC … UGGAAUUCUCGGGUGCCAA
Construct (chain): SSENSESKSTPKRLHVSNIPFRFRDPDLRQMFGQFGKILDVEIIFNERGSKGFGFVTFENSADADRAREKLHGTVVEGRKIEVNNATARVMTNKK
AAUCAAAGAUGAUACAAUAUUUCCCUCACUUCUGUUUUGCUGGCCUUAACUGGUAUCAAACAGUGUCACUGAGAUAUUUUCAAAGAACACUGAAUUGUAUUUAAUCAGCG: 0.268
CCUCAUUCCAUCAGAGUAAUACACUUGCUUUAAUUCUUAAGCCUAAGUGAUACAAACAUGCCGAAUUACCUGUAAAGAAUGCAUUUAAAGCUAUUCUAAAUGGGUUUUUA: 0.265
UGGAAUUCUUUUGUCCAUGUUAAAAAGACUUGAAAACUGAAACGUCACGGUACAGUGUUAAUUCACGCCUGUGUGUGUAACAGGACACUCAGCAAUUAUCUUAAGAACAC: 0.397
CUGUUUAUUUAAGAAACAUAUCUCUUCUUUCUAUGAAAAACAAAUUUUAAAGGCAAUUUAAGUUGCCUUUAGUUGACCGGUAAACUAAUCCAGUUGGAACAUACAUGCUU: 0.371
CAGAAAUUUAAAAAAUGAUAUUGGGACCUGGAAGGUUUAAUAUGGUUCACAGUGCCUGAAUUACACCUGCUCCGAAAACUAGCUUUGUAUUUCUUAUGACUUUGCAUAAG: 0.431
CUCAGGCCUGGAAGUGAAAGCCGCCUCCUUCCCGUUAUGCCCCCCAUACAGGAGCCUCGGUUUUUCAGCAAAACGCGGCCAGUCCCCUUCUCCACUGCUGCCUCCCAGCA: 1.11
CGUGCCGAUCUCGUGUUCUUUCCUGGAUCACAGACAUUAACAAAAAAGUUAAUUUAUGUGACUUGGCAGUUAUUCUAUACAUUUCCUGUCCAUUAAAAAUUUUAAAGGAA: 0.222
UUGUAACCAAAUUCAUAUACUUUGUAUAAGUUUUUGAUAUCAUGAUCACAGGUGAUUCACACGUACACACAUCCACACCCACACGUGCAGCCUGAAGUGACGUCCACAGA: 0.209

Set 3
Target: Prothrombin, mature alpha-thrombin (F2, Homo sapiens, UniProt P00734)
Technique: aptamer microarray, sandwich
Molecule type: DNA with 2'F-ANA
Sample: in vitro
Tested at: 200 nM
Notes: whole 15-mer aptamer, many near background
Added: Cy3 exosite-II aptamer, 400 nM
Direction: higher = stronger binding
Endpoint: mean fluorescence intensity
Strand: GGTTGGTGTGGTTGG
2'F-ANA at 4 7 8 10 11: 90.4 a.u.
2'F-ANA at 1 4 7 9 11 12 13 15: 134 a.u.
2'F-ANA at 2 3 6 8 10 12 13: 370 a.u.
2'F-ANA at 6 12: 784 a.u.
2'F-ANA at 2 3 5 10 11 14 15: 64.5 a.u.
2'F-ANA at 1 2 4 5 6 7 10 11 13 15: 51.9 a.u.
2'F-ANA at 1 3 4 6 7 8 14 15: 80.1 a.u.
2'F-ANA at 2 4 8 10 12 13 15: 99.6 a.u.
2'F-ANA at 2 3 4 5 9 12 13 14 15: 66.6 a.u.
2'F-ANA at 2 3 5 6 8 9 10 11 12 14: 48.6 a.u.
2'F-ANA at 1 2 6 7 8 14: 57.2 a.u.
2'F-ANA at 4 7 8 10 11 12 15: 108 a.u.
2'F-ANA at 1 2 5 6 7 10: 44.8 a.u.
2'F-ANA at 2 4 5 8 12 14: 46.9 a.u.
2'F-ANA at 1 2 3 4 5 6 9 12 13: 68.2 a.u.
2'F-ANA at 4 5 7 8 10 13: 155 a.u.
2'F-ANA at 2 4 5 7 9 10 11 12: 49.1 a.u.
2'F-ANA at 2 8 10 14 15: 80.5 a.u.
2'F-ANA at 4 5 7 8 10 11 13 14 15: 49 a.u.
2'F-ANA at 2 3 4 5 7 8 9 10 11 12: 59.7 a.u.
2'F-ANA at 6 7 9 11 13: 324 a.u.
2'F-ANA at 3 4 5 7 8 10 11 12 13 14: 48.3 a.u.

Set 4
Target: Ras GTPase-activating protein-binding protein 1, full length (G3BP1, Homo sapiens, UniProt Q13283)
Chain of UniProt Q13283 (whole entry, looked up): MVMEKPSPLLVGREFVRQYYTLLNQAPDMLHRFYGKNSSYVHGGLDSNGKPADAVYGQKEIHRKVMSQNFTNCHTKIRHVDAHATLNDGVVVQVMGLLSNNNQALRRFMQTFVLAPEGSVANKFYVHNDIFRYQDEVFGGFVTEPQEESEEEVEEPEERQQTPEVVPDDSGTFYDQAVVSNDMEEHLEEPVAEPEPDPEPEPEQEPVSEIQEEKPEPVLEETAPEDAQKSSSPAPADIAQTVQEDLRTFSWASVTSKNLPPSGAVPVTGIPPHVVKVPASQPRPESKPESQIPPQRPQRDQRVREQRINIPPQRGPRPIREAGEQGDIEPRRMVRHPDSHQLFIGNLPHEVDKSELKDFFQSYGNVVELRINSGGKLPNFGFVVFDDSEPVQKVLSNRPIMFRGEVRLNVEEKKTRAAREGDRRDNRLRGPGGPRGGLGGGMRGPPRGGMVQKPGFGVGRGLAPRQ
Technique: RNA Bind-n-Seq
Molecule type: RNA
Sample: in vitro
Tested at: 200 nM
Notes: whole 134-nt RNA, ends assumed
Added: 150 mM LiCl
Baseline: input library
Direction: higher = stronger binding
Endpoint: log2 enrichment
Library: 7-deaza-guanosine replaces G
All sequences stand within: GGGAGUUCUACAGUCCGACGAUC … UGGAAUUCUCGGGUGUCAAGG
UGGCUUCCUUCUUUCUAUUCCCCGCCUGCCUUCCAUGGUAGAGGCCAGUGACUUUGAGAUUAAUGGACUGGACUUCAUGGUAAGACCCUC: 0.493
AAGUCCUGUGCUACACAUCGUAUGUACCGAAUCGGGUGGGAAAAAAAGGGUUUGGGAAAGUAUUAUGUUACGCCGUUCGGAUCUGCACUU: -1.69
UAACUUUAGAGGAGGAUCUGAAGGAUAUGGCAGUGGACGUGGAUUUGGGGAUGGCUAUAAUGGGUAUGGAGGAGGACCUGGAGGUGGCAA: -0.231
UAACUUUAGAGGAGGAUCUGAUGGAUAUGGCAGUGGACGUGGAUUUGGGGAUGGCUAUAAUGGCUAUGGAGGAGGACCUGGAGGUGGCAA: 0.412
GCAGGAAGUAAAAACAAAUGGAAAUGCAUCGGAUAGUGGCAGGGGUGGGGGUUGCUAAGGAAAGGGUGGGAUGGGAGUGGGUAAAGAGUU: -0.0603
CCUCAAGUCCUGUGCUACACAUCGUAUGUACCGAAUCGGAAAAAGGUGGAGGAAAGUAUUAUGUUACGCCGUUCGGAUCUGCACUUCCAG: 0.0875
CUGUGCUACACAUCGUAUGUACCGAAUCGGGGAAAAAAAGGGAAAAAAAGGAAAAAAAGGGGAAAGUAUUAUGUUACGCCGUUCGGAUCU: 0.415
AAGUCCUGUGCUACACAUCGUAUGUACCGAAUCGGAAAAAAAGGUGGUUUUUUUGGAAAGUAUUAUGUUACGCCGUUCGGAUCUGCACUU: -1.64

Set 5
Target: Sal-like protein 4, full length isoform B (SALL4, Homo sapiens, UniProt Q9UJQ4-2, residues 1-616)
Technique: universal PBM
Molecule type: double-stranded DNA, one strand shown
Sample: in vitro
Tested at: not given
Notes: 8-mer, flanks averaged, mean of replicates
Direction: higher = stronger binding
Endpoint: E-score
ATCGCATG: -0.0241
TAGAAGAA: 0.184
CGAATACC: -0.174
CGATGTGC: -0.199
CACAGTAA: 0.149
AGGGCCTC: -0.246
GACATGGA: -0.0899
AAGATATG: 0.293
GACGCCTC: -0.184
AGCAGTCG: -0.229
ACGGCGCA: -0.235
AAACTACA: 0.12
GATAATGC: 0.0947
AGAGCGGC: -0.235
CTATAAGC: 0.157
CAGTTCGG: -0.148
CAGGTACA: -0.0276
ATTCAGGA: 0.0995
CAACTTAC: -0.0681
CTACTCGA: 0.0264
ACCCGCGC: -0.256
ATAGGATG: 0.191
AAAATTCA: 0.323
GATTAGGA: 0.0543
CGCTTCCA: -0.189

A few entries again (set 3):
2'F-ANA at 1 4 7 9 11 12 13 15: 134 a.u.
2'F-ANA at 2 3 6 8 10 12 13: 370 a.u.
2'F-ANA at 6 12: 784 a.u.
2'F-ANA at 2 3 5 10 11 14 15: 64.5 a.u.
2'F-ANA at 1 2 4 5 6 7 10 11 13 15: 51.9 a.u.
2'F-ANA at 1 3 4 6 7 8 14 15: 80.1 a.u.
2'F-ANA at 2 4 8 10 12 13 15: 99.6 a.u.
2'F-ANA at 2 3 4 5 9 12 13 14 15: 66.6 a.u.
2'F-ANA at 2 3 5 6 8 9 10 11 12 14: 48.6 a.u.
2'F-ANA at 1 2 6 7 8 14: 57.2 a.u.
2'F-ANA at 4 7 8 10 11 12 15: 108 a.u.
